Published values gathered from unrelated publications.
Numbers after ± are the reported error.
HCRTR1: Orexin/Hypocretin receptor type 1 (HCRTR1, Homo sapiens, UniProt O43613)

`CSVQ` — result for “farnesylation rate constant”: 4.4 ± 0.5 s⁻¹ (Protein farnesyltransferase (Rattus norvegicus, UniProt Q02293+Q04631); substrate, stopped-flow fluorescence; peptide; pH 7.8, 25 °C, single turnover).
With `O=C(N1CCCC[C@@H]1Cc1ccccc1)n1cc(C(O)(c2ccc(F)cc2)c2ccc(F)cc2)nn1` the kinact was 0.00533 s⁻¹ (Diacylglycerol lipase-alpha (Mus musculus, UniProt Q6WQJ1); enzyme activity, inhibitor).
With `LHITMPFSSPMEAELVRR (LAGE-1 (90-107); sequence looked up)` the relative IC50 was 3270 (HLA-DPB1*0401; peptide binding, biotinylated peptide competition; peptide; baseline: peptide over reference peptide, lower = stronger binding).
`CCCSc1nc2c([nH]1)c(=S)n(C)c(=S)n2C` has a remaining activity of 78% (Androgen receptor (AR, Homo sapiens, UniProt P10275); reporter gene, antagonist, PSA-luciferase; HeLa-A6; 10 µM, 24 h, with: 5 nM dihydrotestosterone; baseline: maximal activity).
`CC(C)[C@H](NC(=O)[C@@H]1CCCN1C(=O)[C@H](CCCNC(=N)N)NC(=O)[C@H](CS)NC(=O)[C@H](Cc1c[nH]c2ccccc12)NC(=O)[C@H](CCCNC(=N)N)NC(=O)[C@@H](Cc1ccccc1)NC(=O)[C@H](Cc1c[nH]cn1)NC(=O)[C@H](CCC(=O)O)NC(=O)[C@H](CS)NC(=O)[C@H](CS)NC(=O)[C@H](CCCCN)NC(=O)[C@@H]1CC(=O)N[C@@H](CCCNC(=N)N)C(=O)N[C@@H](C)C(=O)N[C@@H](CC(=O)O)C(=O)N[C@H](Cc2ccc(O)cc2)C(=O)N1)C(N)=O` [technetium-99m labelled] gave a tissue uptake of 1.09 ± 0.37 %ID/g (C57 mice, stomach; intravenous, 0.037 MBq, 4 h).
Under “Imax relative to cGMP”, `Nc1nc2c(ncn2[C@@H]2O[C@@H]3COP(=O)(O)O[C@H]3[C@H]2O)c(=O)[nH]1` is recorded as 1 (CNGA3 (Homo sapiens, UniProt Q16281); ion current, agonist, inside-out patch clamp; Xenopus oocytes; homomeric channel; baseline: maximum cGMP current at start).
The TΔS of `Ac-YESTNPFTAK-NH2 (N-acetyl, C-amide)` is reported as -6.66 kcal/mol (EHD1 EH domain, mouse; ITC; peptide; pH 7.0, 20 °C, 0 mM KCl, first titration).
`CC(=O)N[C@@H](CCCCN)C(=O)N[C@@H](CCCNC(=N)N)C(=O)N[C@@H](CC(C)C)C(=O)N[C@@H](CCCNC(=N)N)C(=O)N[C@@H](CCCNC(=N)N)C(=O)N[C@@H](CO)C(=O)N[C@@H](C)C(=O)N[C@@H](Cc1c[nH]cn1)C(=O)N[C@@H](C)C(=O)N[C@@H](CCCNC(=N)N)C(=O)N[C@@H](CCCCN)C(=O)N[C@@H](CCC(=O)O)C(=O)N[C@H](C(=O)N[C@@H](CCC(=O)O)C(=O)N[C@@H](Cc1ccccc1)C(=O)N[C@@H](CC(C)C)C(=O)N[C@@H](CCCNC(=N)N)C(=O)N[C@@H](CC(C)C)C(=O)N[C@@H](CCCCN)C(=O)N[C@@H](CCCNC(=N)N)C(=O)N[C@H](C(=O)N[C@@H](CCCNC(=N)N)C(=O)N[C@@H](CC(C)C)C(=O)NCC(=O)N[C@@H](CC(C)C)C(=O)N[C@@H](CCC(=O)O)C(=O)N[C@@H](Cc1ccc(O)cc1)C(N)=O)[C@@H](C)O)[C@@H](C)O`: “heat capacity change” -1.5 ± 0.3 kJ/mol/K (Protein S100-B (Homo sapiens, UniProt P04271); binding, ITC; concentration not given, 5 to 35 °C, low salt, with: 5 mM Ca2+).
`COc1cc2c(cc1OC)C(Cc1ccc(NC(C)=O)cc1)N(CC(=O)NCc1ccccc1)CC2` (stereo not shown) has a Kb of greater than 10 µM (HCRTR1; calcium signal, antagonist, fluorescence).
`CC(=O)N[C@H]1[C@@H](O[C@H](C)[C@H](NC(=O)CNC(=O)[C@H](C)NC(=O)CNC(=O)[C@H](C)NC(=O)CNC(=O)[C@H](C)NC(=O)CNC(=O)[C@@H](NC(=O)[C@H](C)NC(=O)CN)[C@@H](C)O[C@H]2O[C@H](CO)[C@H](O)[C@H](O)[C@H]2NC(C)=O)C(=O)N[C@H](C(=O)N2CCC[C@H]2C(=O)NCC(=O)N2CCC[C@H]2C(=O)NCC(N)=O)[C@@H](C)O)O[C@H](CO)[C@H](O)[C@@H]1O` has an STD enhancement of greater than 75% (Polypeptide N-acetylgalactosaminyltransferase 4 (GALNT4, Homo sapiens, UniProt Q8N4A0); substrate, STD-NMR, item: GalNAc N-acetyl methyl; 877 µM, pH 7.4, 298 K, with: UDP and MnCl2).
With `COc1ccc(CC2c3cc(OC)c(OC)cc3CCN2CC(=O)NCc2ccccc2)cc1NC(C)=O` (stereo not shown) the Kb was greater than 10 µM (HCRTR1; calcium signal, antagonist, fluorescence).
`Nc1nc2c(ncn2[C@@H]2O[C@@H]3COP(=O)(O)O[C@H]3[C@H]2O)c(=O)[nH]1`: “relative maximal current” less than 20% (Cnga2 (Rattus norvegicus, UniProt Q00195, C460W/del61-90/E583M); agonist, inside-out patch clamp; concentration not given; baseline: saturating cAMP).
For `COc1ccc(-n2nc(C(N)=O)c3c2C(=O)N(c2ccc(N4CCCCC4=O)cc2)CC3)cc1`, “trough plasma anti-factor Xa activity” read 0.24 IU/mL (F10 (Bos taurus, UniProt P00743); chromogenic anti-FXa; healthy humans, plasma; 2.5 mg twice daily, day 4 steady state, geometric mean, LMWH-calibrated).

For quick reference, copied from above:
With `O=C(N1CCCC[C@@H]1Cc1ccccc1)n1cc(C(O)(c2ccc(F)cc2)c2ccc(F)cc2)nn1` the kinact was 0.00533 s⁻¹ (Diacylglycerol lipase-alpha (Mus musculus, UniProt Q6WQJ1); enzyme activity, inhibitor).
